Assay results from different studies.
Lines come from different studies, so protocols differ. Values joined by “and” are separate records of one study, mostly repeats; a detail may differ. ± marks the error that the study gave.

C[n+]1ccc(/C=N/NC(=O)N/N=C/c2cc[n+](C)c3ccccc23)c2ccccc21  ΔTm (MYC parallel G4 DNA; FRET melting; 1 µM, DNA 0.2 µM, together with: duplex DNA competitor 10 µM): 3.7 ± 0.2 °C
COC1OC(C)C(OC2OC(C)C(OS(=O)(=O)O)C(OC3OC(C)C(OC4OC(C)C(OS(=O)(=O)O)C(OC5OC(C)C(OC6OC(C)C(OS(=O)(=O)O)C(OC7OC(C)C(OS(=O)(=O)O)C(OS(=O)(=O)O)C7OS(=O)(=O)O)C6OS(=O)(=O)O)C(OS(=O)(=O)O)C5OS(=O)(=O)O)C4OS(=O)(=O)O)C(OS(=O)(=O)O)C3OS(=O)(=O)O)C2OS(=O)(=O)O)C(OS(=O)(=O)O)C1OS(=O)(=O)O (stereo not shown)  viability (NIH 3T3; CCK-8; concentration not given, 24 h, low concentration; reference: untreated cells): 102% and 101% and 98.7%
Cc1ccc(-n2cc(CSc3nc4ccccc4n3Cc3cn(-c4ccc(C)cc4)nn3)nn2)cc1  viability (HEK293; MTT; 125 ppm): 16.4%
C[n+]1ccc(/C=N/NC(=O)c2cccc(C(=O)N/N=C/c3cc[n+](C)c4ccccc34)c2)c2ccccc21  ΔTm (MYC parallel G4 DNA; FRET melting; 1 µM, DNA 0.2 µM, together with: duplex DNA competitor 10 µM): 4.6 ± 0.2 °C
CCc1c(-c2ccc3[nH]ncc3c2)cnc(N)c1-c1ccc(O)cc1  viability (CHP-212; SRB; 0.3906 µM): 102% and 104%
N#C[C@@H]1CC(F)(F)CN1C(=O)CNC(=O)c1ccnc2c(NC(=O)[C@H](CCCCNC(=O)CCOCCOCCOCCOCCOCCOCCNC(=O)CN3CCN(CC(=O)[O-])CCN(CC(=O)[O-])CCN(CC(=O)[O-])CC3)NC(=O)CCCc3ccc(I)cc3)cccc12.[177Lu+3]  tracer uptake (U-87 MG tumour model; host not given, stomach; 24 h, tumour-bearing): 0.8 %ID/g
COC1CN([C@H]2CC[C@H]([C@@]3(C)Oc4c(Cl)cc(C(=O)NCc5c(SC)cc(C)[nH]c5=O)c(C)c4O3)CC2)C1  log2 fold change (RNA-seq, item: CD276; human, whole blood; dose not given, 24 h; reference: pretreatment baseline): 6.29
COC1OC(C)C(OS(=O)(=O)O)C(OC2OC(C)C(OS(=O)(=O)O)C(OC3OC(C)C(OS(=O)(=O)O)C(OC4OC(C)C(OS(=O)(=O)O)C(OC5OC(C)C(OS(=O)(=O)O)C(OC6OC(C)C(OS(=O)(=O)O)C(OC7OC(C)C(OS(=O)(=O)O)C(OC8OC(C)C(OS(=O)(=O)O)C(OC9OC(C)C(OS(=O)(=O)O)C(OC%10OC(C)C(OS(=O)(=O)O)C(OS(=O)(=O)O)C%10OS(=O)(=O)O)C9OS(=O)(=O)O)C8OS(=O)(=O)O)C7OS(=O)(=O)O)C6OS(=O)(=O)O)C5OS(=O)(=O)O)C4OS(=O)(=O)O)C3OS(=O)(=O)O)C2OS(=O)(=O)O)C1OS(=O)(=O)O (stereo not shown)  viability (NIH 3T3; CCK-8; concentration not given, 24 h, low concentration; reference: untreated cells): 111% and 90.8% and 92.3%
CC(=O)OC[C@H]1O[C@@H]([Se]C(C)=O)[C@H](OC(C)=O)[C@@H](OC(C)=O)[C@@H]1OC(C)=O  viability (THP-1 macrophages (PMA-differentiated); WST-1; 50 µM, 24 h): 63.8 ± 16.9%
CN1CCCNC(=O)c2cccc(c2)C(=O)NCCCN(C)CCCNc2cccc3c2C(=O)c2cccc(c2C3=O)NCCC1  viability (Ca9-22; cell growth or viability, CCK-8; 1 nM, 48 h): 101%
COC1OC(C)C(OC2OC(C)C(O)C(OC3OC(C)C(OC4OC(C)C(O)C(OC5OC(C)C(OC6OC(C)C(O)C(OC7OC(C)C(OC8OC(C)C(O)C(OS(=O)(=O)O)C8OS(=O)(=O)O)C(OS(=O)(=O)O)C7OS(=O)(=O)O)C6OS(=O)(=O)O)C(OS(=O)(=O)O)C5OS(=O)(=O)O)C4OS(=O)(=O)O)C(OS(=O)(=O)O)C3OS(=O)(=O)O)C2OS(=O)(=O)O)C(OS(=O)(=O)O)C1OS(=O)(=O)O (stereo not shown)  viability (NIH 3T3; CCK-8; concentration not given, 24 h, medium concentration; reference: untreated cells): 100% and 92.2% and 99.7%
C=C(NC(=O)c1csc(-c2nc3c(cc2O)-c2nc(cs2)C(=O)NC(C(C)O)C(=O)NC(=C(C)OC)c2nc(cs2)C(=O)NC2c4nc(cs4)C(=O)NC(COC(=O)c4c5c6c(cccc6n4O)COC(=O)C(OC4CC(C)(O)C(N(C)C)C(C)O4)C2OC5)c2nc-3cs2)n1)C(N)=O (stereo not shown)  clearance (Sprague-Dawley rat, both sexes, plasma; intravenous infusion, 2 mg/kg single dose): 39.5 mL/min/kg
O=C(O)c1c(O)cc(O[C@@H]2O[C@H](CO)[C@@H](O)[C@H](O)[C@H]2O)cc1/C=C/c1ccccc1  viability (WI-38; cell growth or viability, crystal violet; 50 µM, 48 h): > 50%
CC(=O)OC[C@H]1O[C@@H]([Se]C(=O)c2ccc([N+](=O)[O-])cc2)[C@H](OC(C)=O)[C@@H](OC(C)=O)[C@@H]1OC(C)=O  viability (THP-1 macrophages (PMA-differentiated); WST-1; 10 µM, 24 h): 83.8 ± 18.8%
c1cc2nc(c1)-c1cccc(n1)CCCc1ccc(cc1)OCCCCCCOc1ccc(cc1)CCC2  viability (Caco-2; cell growth or viability, MTT; 25 µM, 48 h): 87.1%
O=C(OC[C@@]1(O)C(=O)C=C[C@H]2[C@@H]1[C@H]1C=C[C@@H]2C(=O)[C@]1(O)COC(=O)c1ccccc1)c1ccccc1  viability (A549; cell growth or viability, MTT; 100 µg/mL): 73.3%

For quick reference, copied from above:
CCc1c(-c2ccc3[nH]ncc3c2)cnc(N)c1-c1ccc(O)cc1  viability (CHP-212; SRB; 0.3906 µM): 102% and 104%
CC(=O)OC[C@H]1O[C@@H]([Se]C(=O)c2ccc([N+](=O)[O-])cc2)[C@H](OC(C)=O)[C@@H](OC(C)=O)[C@@H]1OC(C)=O  viability (THP-1 macrophages (PMA-differentiated); WST-1; 10 µM, 24 h): 83.8 ± 18.8%
